Measurements from different studies.
Protocols differ between the studies behind these lines. “And” joins repeats or separate records; there may be more than shown. ± marks the error that the study gave. Converted amounts (≈) assume the structure as drawn.

SMILES | organism | assay | test system | setting | how to read | quantity | value
COC(=O)[C@H](Cc1c[nH]c2ccccc12)NCc1cc2ccccc2nc1OC | Pseudomonas aeruginosa |  |  | 32 µg/mL, together with: pentamidine 100 µM | reference: control | growth | 37.5%
CCOc1nc(N)ncc1-c1cn([C@@H]2O[C@](F)(COC(=O)C(C)C)[C@@H](OC(=O)C(C)C)[C@H]2OC(=O)C(C)C)cn1 | Dengue virus | viral replication | Huh-7, DENV-2 | 48 h |  | EC50 | 14.1 µM
Cc1ccc(CCC(=O)Nc2nnc(S(N)(=O)=O)s2)cc1 | Lactobacillus |  | ATCC 53103 |  |  | MIC | > 784 µM
CC(C)C(=O)OC[C@@]1(F)O[C@@H](n2cnc(-c3cnc(N)[nH]c3=O)c2)[C@H](OC(=O)C(C)C)[C@@H]1OC(=O)C(C)C | Dengue virus | viral replication | Huh-7, DENV-2 | 48 h |  | EC50 | > 100 µM
CC(C)C[C@H](NC(=O)[C@H](Cc1cccc2ccccc12)NC(=O)OCc1ccccc1)C(=O)NC(C[C@@H]1CCNC1=O)C1OC1S(C)(=O)=O (stereo partly drawn) | Norwalk virus | RT-qPCR, item: replicon RNA | HG23, GI-1 replicon | 96 h |  | EC90 | > 20 µM
CCCCCCCCCC(=O)N[C@@H](Cc1c[nH]c2ccccc12)C(=O)N[C@H](CC(N)=O)C(=O)N[C@@H](CC(=O)O)C(=O)N[C@@H]1C(=O)NCC(=O)N[C@@H](CCCN)C(=O)N[C@@H](CC(=O)O)C(=O)N[C@H](C)C(=O)N[C@@H](CC(=O)O)C(=O)NCC(=O)N[C@H](CO)C(=O)N[C@@H]([C@H](C)CC(=O)O)C(=O)N[C@@H](CC(=O)c2ccccc2N)C(=O)O[C@@H]1C | Staphylococcus aureus |  | SH1000 | together with: cardiolipin, molar ratio 2 |  | MIC | 1 µg/mL
CC(=O)Oc1ccc(-c2c(C(N)=O)c(N)n(N)c(=O)c2C#N)cc1 | Escherichia coli | time-kill |  | 1 x MIC, 90 min |  | viable count | 0.6 log CFU/mL
CC(C)c1ccc(/C=C2\N/C(=N/c3ccccc3)N(N)C2=O)cc1 | Fusarium solani |  |  | concentration not given |  | inhibition zone diameter | 14 ± 0.61 mm
NC(=O)c1ncn([C@@H]2O[C@H](CO)[C@@H](O)[C@H]2O)n1 | Potato virus Y | in vivo |  | 500 µg/mL |  | inactivation activity | 61% and 50% and 55%
CCNCc1cnn(-c2ccc(-n3ccc(Cl)c(Cl)c3=O)cc2)c1C(F)(F)F | amyloid beta oligomers | dendritic length, MAP2 staining | primary rat hippocampal neurons | together with: 7PA2 conditioned medium |  | effective concentration | 100 nM
CC1(C)S[C@@H]2[C@H](NC(=O)[C@H](N)c3ccccc3)C(=O)N2[C@H]1C(=O)O | Pseudomonas aeruginosa |  | clinical isolate RKI-No_84/15 |  |  | MIC | > 16 µg/mL
C[C@@H](CO)CCC[C@@H](C)[C@H]1CC[C@H]2[C@@H]3CC=C4C[C@@H](O)CC[C@]4(C)[C@H]3CC[C@]12C | human rotavirus | viral replication | MA104, Wa |  |  | EC90 | 1.73 µM
CC(C)n1ncc2c(C(=O)NCC3(C)CNC3)cc(C3CC3)nc21 | Enterovirus D68 | viral replication | RD, US/MO/14-18947 | 3 µM | reference: untreated | plaque area | 0%
COC(=O)[C@@H](NCc1cc2ccccc2nc1OCc1ccccc1)C(C)C | Pseudomonas aeruginosa |  |  | 2 µg/mL, together with: pentamidine 50 µM | reference: control | growth | 101%
CC(C)C(=O)OC[C@@]1(F)O[C@@H](n2cnc(-c3c[nH]c(=O)nc3N)c2)[C@H](OC(=O)C(C)C)[C@@H]1OC(=O)C(C)C | Dengue virus | viral replication | Huh-7, DENV-4 | 48 h |  | EC50 | > 100 µM
O=C1/C(=C/c2ccc3ccccc3c2O)NC(=S)N1c1ccccc1 | Fusarium solani |  |  | concentration not given |  | inhibition zone diameter | 20 ± 0.3 mm
CC(C)C(=O)OC[C@@]1(F)O[C@@H](n2cnc(-c3cnc(N)nc3)c2)[C@H](OC(=O)C(C)C)[C@@H]1OC(=O)C(C)C | Dengue virus | viral replication | Huh-7, DENV-4 | 48 h |  | EC50 | 27 µM
COCC(=O)N1CCC[C@@H](C(=O)NCc2nc(-c3ccccc3)cs2)C1 | Plasmodium falciparum | SYBR Green | 3D7 | 72 h |  | EC50 | 10 ± 0.85 µM
CN[C@H](CC(C)C)C(=O)N[C@H]1C(=O)N[C@@H](CC(N)=O)C(=O)N[C@H]2C(=O)N[C@H]3C(=O)N[C@H](C(=O)N[C@H](C(=O)O)c4cc(O)cc(O)c4-c4cc3ccc4O)[C@H](O)c3ccc(c(Cl)c3)Oc3cc2cc(c3O[C@@H]2O[C@H](CO)[C@@H](O)[C@H](O)[C@H]2O[C@H]2C[C@](C)(N)[C@H](O)[C@H](C)O2)Oc2ccc(cc2Cl)[C@H]1O | Staphylococcus aureus |  | MRSA ATCC 43300 | 2 × MIC |  | post-antibiotic effect | 0.446 h
CCc1nn(C)c2nc(-c3ccc(C(=O)O)cc3)nc(NCc3ccc(F)cc3)c12 | Cryptosporidium parvum |  | HCT-8 | 3 x EC90, 24 h | reference: DMSO control | parasite number | 33.6% and 30.9% and 28.3% and 30.8%
CC(=O)NC[C@H]1CN(c2ccc(N3CCOCC3)c(F)c2)C(=O)O1 | Enterococcus raffinosus |  | ATCC 49464 |  |  | MIC | 2.96 µM

SMILES | organism | assay | test system | setting | how to read | quantity | value
Cc1cc(OC(C)C)ccc1C(=O)C(C)(C)NC(=O)c1sccc1C | Botrytis cinerea | appressorium formation | B05.10 | 0.1 µg/mL |  | inhibition | 78.7 ± 9.1%
CC(C)(C)CC(C)(C)c1ccc(OCCO)cc1 | Phelipanche ramosa | seed germination, inhibitor |  | together with: (±)-GR24 10 nM |  | IC50 | 35 µM
Nc1nc(-c2ccccc2)nc2[nH]nc(Nc3ccc(C(F)(F)F)cc3)c12 | coxsackievirus B3 |  | 31-1-93, NMRI mice, CVB3 chronic myocarditis | oral, 100 mg/kg twice daily, day 12, dosed days 1 to 7, score scale 0 to 7 | direction not given | clinical score | 0.22
N=C(N)c1ccc(OCc2ccc(-c3ccccc3)cc2COc2ccc(C(=N)N)cc2)cc1 | Klebsiella pneumoniae |  | ATCC 13883 | concentration not given, together with: rifampicin |  | MIC in combination | 6.25 µg/mL
C#CCCCC(=O)NCC | Escherichia coli | LuxR reporter bioluminescence, antagonist | DH5α sensor strain | 200 µM, together with: OHHL 200 nM |  | inhibition | 2 ± 4%
CNC(C)C1CCC(N)C(OC2C(N)CC(N)C(OC3OCC(C)(O)C(NC)C3O)C2O)O1 (stereo not drawn) | Pseudomonas aeruginosa |  | clinical isolate RKI-No_130/15 |  |  | MIC | 2 µg/mL
COc1ncc(-c2cn([C@@H]3O[C@](F)(CO)[C@@H](O)[C@H]3O)cn2)cn1 | Dengue virus | viral replication | Huh-7, DENV-2 | 48 h |  | EC50 | > 100 µM
Cc1ccc(N(c2ccc(NC(=O)CN(C)c3ccccc3N3CCCC3=O)cc2)C(C)C)cc1 | Plasmodium falciparum | parasite growth, LDH activity | 3D7 asexual stage | 72 h |  | EC50 | 0.005 µM
COc1ncc(-c2cn([C@@H]3O[C@](F)(COC(=O)C(C)C)[C@@H](OC(=O)C(C)C)[C@H]3OC(=O)C(C)C)cn2)c(N)n1 | Dengue virus | viral replication | Huh-7, DENV-2 | 48 h |  | EC50 | > 100 µM
C[C@@H](O)[C@H]1C(=O)N2C(C(=O)O)=C(SCCN=CN)C[C@H]12 | Escherichia coli |  | ATCC 25922, female ICR mice, wound infection, full-thickness wound | dose not given |  | bacterial load | 6.88 log CFU/g and 6.96 log CFU/g and 6.67 log CFU/g and 6.63 log CFU/g and 6.72 log CFU/g
C[C@@H](O)[C@H]1C(=O)N2C(C(=O)O)=C(S[C@@H]3CN[C@H](C(=O)N(C)C)C3)[C@H](C)[C@H]12 | Salmonella enterica Infantis | broth microdilution | clinical isolate RKI 277/14 |  |  | MIC | ≤ 0.5 µg/mL
CC(C)[C@@H]1NC(=O)[C@@H](CCCCN)NC(=O)[C@H]([C@@H](C)O)NC(=O)[C@@H](CCCN)NC(=O)[C@H](Cc2ccccc2)NC(=O)[C@@H](Cc2ccccc2)NC1=O | Balamuthia mandrillaris | CellTiter-Glo |  | trophozoites |  | IC90 | 3.58 µg/mL (≈ 4.86 µM)
COc1ncc(-c2cn([C@@H]3O[C@](F)(CO)[C@@H](O)[C@H]3O)cn2)c(N)n1 | Dengue virus | viral replication | Huh-7, DENV-2 | 48 h |  | EC50 | > 100 µM
COC(=O)[C@H](Cc1c[nH]c2ccccc12)NCc1cc2ccccc2nc1SC | Pseudomonas aeruginosa |  |  | 2 µg/mL, together with: pentamidine 50 µM | reference: control | growth | 98.5%
CC(=O)NC[C@H]1CN(c2ccc(N3CCOCC3)c(F)c2)C(=O)O1 | Streptococcus pneumoniae | broth microdilution | penicillin-resistant isolates |  |  | MIC50 | 0.5 µg/mL (≈ 1.48 µM)
CC(C)c1ccc(/C=C2\N=C(SCc3ccc([N+](=O)[O-])cc3)N(c3ccccc3)C2=O)cc1 | Fusarium solani |  |  | concentration not given |  | inhibition zone diameter | 15 ± 0.59 mm
Nc1ncc(-c2cn([C@@H]3O[C@](F)(CO)[C@@H](O)[C@H]3O)cn2)cn1 | Dengue virus | viral replication | Huh-7, DENV-2 | 48 h |  | EC50 | > 100 µM
Cc1c(CN(C)C(=O)/C=C/c2cnc3c(c2)CC(NC(=O)OC(C)(C)C)C(=O)N3)oc2ccccc12 (stereo not drawn) | Klebsiella pneumoniae | broth microdilution | AR-0034 |  |  | MIC | > 32 µg/mL
CC(C)c1ccc(/C=C2\NC(=S)N(c3ccccc3)C2=O)cc1 | Fusarium solani |  |  | concentration not given |  | inhibition zone diameter | 15 ± 0.85 mm
CCCCc1ccc(CNc2nc(N(C)C)nc(N(C)C)c2/N=N/c2ccc(Cl)cc2)cc1 | Ostrinia furnacalis |  |  | 10 µM, 6 days, larvae, artificial diet |  | body length decrease | 18%
COc1cc(C#CC(=O)c2ccccc2)ccc1O | Pseudomonas aeruginosa | static biofilm | PA14 | 10 µM, 24 h, static | reference: DMSO | biofilm formation | 46%

Some of these lines once more:
SMILES | organism | assay | test system | setting | how to read | quantity | value
CNC(C)C1CCC(N)C(OC2C(N)CC(N)C(OC3OCC(C)(O)C(NC)C3O)C2O)O1 (stereo not drawn) | Pseudomonas aeruginosa |  | clinical isolate RKI-No_130/15 |  |  | MIC | 2 µg/mL
COC(=O)[C@H](Cc1c[nH]c2ccccc12)NCc1cc2ccccc2nc1OC | Pseudomonas aeruginosa |  |  | 32 µg/mL, together with: pentamidine 100 µM | reference: control | growth | 37.5%
Cc1ccc(CCC(=O)Nc2nnc(S(N)(=O)=O)s2)cc1 | Lactobacillus |  | ATCC 53103 |  |  | MIC | > 784 µM
CC(C)n1ncc2c(C(=O)NCC3(C)CNC3)cc(C3CC3)nc21 | Enterovirus D68 | viral replication | RD, US/MO/14-18947 | 3 µM | reference: untreated | plaque area | 0%
CCCCCCCCCC(=O)N[C@@H](Cc1c[nH]c2ccccc12)C(=O)N[C@H](CC(N)=O)C(=O)N[C@@H](CC(=O)O)C(=O)N[C@@H]1C(=O)NCC(=O)N[C@@H](CCCN)C(=O)N[C@@H](CC(=O)O)C(=O)N[C@H](C)C(=O)N[C@@H](CC(=O)O)C(=O)NCC(=O)N[C@H](CO)C(=O)N[C@@H]([C@H](C)CC(=O)O)C(=O)N[C@@H](CC(=O)c2ccccc2N)C(=O)O[C@@H]1C | Staphylococcus aureus |  | SH1000 | together with: cardiolipin, molar ratio 2 |  | MIC | 1 µg/mL
C#CCCCC(=O)NCC | Escherichia coli | LuxR reporter bioluminescence, antagonist | DH5α sensor strain | 200 µM, together with: OHHL 200 nM |  | inhibition | 2 ± 4%
